# Published values of several laboratories.
# Each line is one published result; not all experiments were run side by side. “And” joins repeats or separate records; there may be more than shown. ± gives the spread as reported.
# Organism: Escherichia coli
SMILES,test,test system,setting,how to read,measurement,result
COS(C)(=O)=O,"Ames test, confirmatory",WP2 uvrA,1000 µg/plate,relative to: solvent control,revertant ratio,10.7
CN(CC(C)(C)C)N=O,plate incorporation,"WP2uvrA pKM101, methanol","3750 µg/plate, without S9",,revertant colonies per plate,141 and 147
Nc1ccc2cc3ccccc3cc2c1,plate incorporation Ames test,WP2 uvrA,"100 µg per plate, together with: rat liver S9",,revertant colonies per plate,153
COS(C)(=O)=O,Ames test,WP2 uvrA pKM101,"0.2 µg/well, 48 h, without S9",,revertant colonies,480 colonies/well and 624 colonies/well and 560 colonies/well
Nc1ccc2cc3ccccc3cc2c1,"Ames test, confirmatory",WP2 uvrA,"15 µg/plate, together with: rat liver S9",relative to: solvent control,revertant ratio,13.8
Nc1ccc2cc3ccccc3cc2c1,,WP2 uvrA,"20 µg/plate, together with: rat liver S9",,mean revertants per plate,181 revertants/plate
CC(C)N(N=O)C(C)C,"mutagenicity, Ames plate incorporation",WP2 uvrA pKM101,"150 µg/plate, without S9, methanol",,revertant colonies per plate,169 ± 17
COc1cccc(-c2n[nH]c(SCc3ccccn3)n2)c1OC,"Ames test, plate incorporation",WP2 uvrA,"2.0 mg/plate, with rat liver S9",,revertant colonies per plate,43
CC(C)N(C)N=O,"mutagenicity, Ames plate incorporation",WP2 uvrA pKM101,"2500 µg/plate, 3 d, without S9, methanol",,revertant colonies per plate,155 ± 23
CC(=O)N1CCC(C(=O)N2CCN3C(=O)c4cc(-c5ccccc5)ccc4NC(=O)C3C2)CC1 (stereo not drawn),,WP2 uvrA,"158 µg/plate, with rat liver S9",,revertants per plate,26
COS(C)(=O)=O,plate incorporation Ames test,WP2 uvrA,1 µL per plate,,revertant colonies per plate,409
Cc1cc(C(=O)NC(C)(C)COc2cccc3c2C(N)=NS(=O)(=O)N3)cc(C)n1,"Ames test, confirmatory",WP2 uvrA,1000 µg/plate,relative to: solvent control,revertant ratio,0.9

# A few entries again:
SMILES,test,test system,setting,how to read,measurement,result
CC(C)N(N=O)C(C)C,"mutagenicity, Ames plate incorporation",WP2 uvrA pKM101,"150 µg/plate, without S9, methanol",,revertant colonies per plate,169 ± 17
